# Measurements collected from several papers.
# Numbered parts are unrelated; each lists some results of a single study. Substitutions count along the parent as printed.

# Study 1 — technique: aptamer microarray, sandwich; form: DNA with 2'F-ANA; sample: in vitro; tested at: 200 nM; together with: Cy3 exosite-II aptamer, 400 nM; direction: higher = stronger binding; strand: GGTTGGTGTGGTTGG
# Target: Prothrombin, mature alpha-thrombin (F2, Homo sapiens, UniProt P00734)
# Notes: whole 15-mer aptamer, many near background
Modification,mean fluorescence intensity [a.u.]
2'F-ANA at 1 2 4 6 7 11 15,92.2
2'F-ANA at 2 5 7 9 10 12 13 14 15,52.3
2'F-ANA at 2 3 4 6 9 10 13 14,149
2'F-ANA at 1 2 3 5 8 10 13 15,74
2'F-ANA at 1 5 6 7 8 11 13,54
2'F-ANA at 1 5 6 7 10 11 14 15,48.3
2'F-ANA at 1 3 5 6 8 9 10 11 14,64.2
2'F-ANA at 1 6 8 9 10 11 12 14 15,52.2

# Study 2 — target: CREB5, bZIP domain (human); technique: DHFR protein complementation; sample: yeast; relative to: wild-type JUN-FOS pair; direction: higher = stronger binding
# Notes: single substitutions, most at no-binding floor
# Parent: JUN, bZIP domain (human); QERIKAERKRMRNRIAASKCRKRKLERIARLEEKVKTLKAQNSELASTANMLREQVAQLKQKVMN; partner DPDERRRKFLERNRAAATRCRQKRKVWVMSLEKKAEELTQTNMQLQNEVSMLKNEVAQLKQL
Variant,binding fitness [natural log]
L45E,-1.39
E32A,-0.203
A46K,-0.316
L52S,-1.43
V56S,-1.1
M51E,-0.235
Q58F,-0.588
I28V,-0.282

# Study 3 — technique: RNA Bind-n-Seq; form: RNA; sample: in vitro; tested at: 365 nM; relative to: no-protein control; direction: higher = stronger binding
# Target: RNA binding protein fox-1 homolog 2, RRM domain, GST-SBP tag (RBFOX2, Homo sapiens, UniProt O43251-10, residues 100-194)
# Notes: natural RNA segment, single round, ends assumed
# All sequences stand within: GGGAGUUCUACAGUCCGACGAUC … UGGAAUUCUCGGGUGCCAA
Strand,RBNS enrichment (R)
GAGGGCCCAGCAAGGUAAUUUAUGGUUGAGCUGAUGUCAAUUGGUUCUUGUCUUGAGUCGACUCAAUUUAGCCCAAGUGCUGAAACAAGAAAUGUCAUUUUUUUCAUCAA,0.437
UUCUUAACACUGGUAGCUCCUGUCCCAUUCCAAGACUCACUCUCUCAGACCUUCCCAUCUCCCUGGCUUUCCAUGCUCCUCUCCCUCCACCUCCUGGCUUCAACUGGGUG,0.724
UGCAGAGAAUUCUUGCAGGAAUCAAUAAGGACGUGUCUCUAAUCACGUGUGCGAACUGAAAUGUCAUAGCUGAAGCAGUAUAACAGAAAACCUUUGUUUCCUGUGGGGGG,0.394
AACACCAUGACUACUUCAUUUCUAGCUAAAUCAGAACUGCCUUCAACACUGGAGAAAGGGAGAAGUACUGCGCAACAGAGAUUAGAAGUCCAAAUGUGAAUGGCUGCAGG,0.404
GUACCCGAGAGGCUAGCUAUUUAAGGGAACACAGAGGUAAAUUCUUUUGUAAAGAAUCCUUUUGUAAUGCAAACCAAUUAUCCCUGAAGGUAUCUGUUUUGUAAGUUUGG,0.452
UCUGGGGAAGGCCUUGCCUCUAGGAUGGGCAAGGUUGACUAGGGAUAGUCCCAAAGCAUGACCACAAAGUAGAGAGCACGUGGUUAGAAACCACUUCAUCAGAAUGUGUG,3.23
AAUACCAUUCCAGCCAAAGCUAAAACAGAAAUCCUCUCUAAAAAGAACAAAACAACCGAAACCAAACAAACAAAAAAAUACAAGCAUUCUGUGGUGGGUGGCAUAACAAU,0.873
AUUUAAUAAGCAAUCCGGAUCUCAGAGAACAUAGUAAUACUGUCUAGUUUAAAGCCUGCAGUAAAGGUACUCAGAUUUAUGGCUUUCAUGACUAACACUAAACACAUCAG,0.545

# Other studies, line by line
# Parent: viral docking peptide; KKAKRRLFTISDS; partner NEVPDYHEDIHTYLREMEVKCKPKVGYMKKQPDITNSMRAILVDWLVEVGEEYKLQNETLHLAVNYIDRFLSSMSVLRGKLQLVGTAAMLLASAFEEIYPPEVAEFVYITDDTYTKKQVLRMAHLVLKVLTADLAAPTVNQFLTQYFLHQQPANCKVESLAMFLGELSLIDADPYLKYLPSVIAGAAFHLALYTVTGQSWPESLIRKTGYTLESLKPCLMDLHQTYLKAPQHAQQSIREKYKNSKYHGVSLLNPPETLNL
Variant,target,test,test system,conditions,scale,measurement,value
KKAKRRLFTASDS [I10A],"CCNA2, cyclin fold, Cln2 fusion (human)","yeast growth competition, sequencing",yeast,strong parent motif,"relative to: not given, higher = stronger binding",normalised enrichment score,5.27

# A few entries again (study 2):
Variant,binding fitness [natural log]
L52S,-1.43
I28V,-0.282
E32A,-0.203
